{"data": "Earlier results that unrelated publications cite", "note": "Each numbered part shows a few of the values that one paper quotes. ± gives the spread as reported.", "chain of UniProt P31941 (whole entry, looked up)": "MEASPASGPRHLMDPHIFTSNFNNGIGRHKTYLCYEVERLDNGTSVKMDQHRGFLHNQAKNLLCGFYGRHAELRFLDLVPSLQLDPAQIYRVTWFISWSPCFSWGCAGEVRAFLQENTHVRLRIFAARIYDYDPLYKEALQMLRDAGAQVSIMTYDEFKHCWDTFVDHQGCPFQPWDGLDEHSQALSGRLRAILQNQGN"}
{"data": "Set 1", "target": "dopamine transporter"}
{"SMILES": "Cc1c(O)cccc1C(=O)N[C@@H](CSc1ccccc1)[C@H](O)CN1C[C@H]2CCCC[C@H]2C[C@H]1C(=O)NC(C)(C)C", "IC50 [µM]": 12.3}
{"SMILES": "NC(=O)N1c2ccccc2C=Cc2ccccc21", "IC50 [µM]": "> 10"}
{"SMILES": "CN(Cc1cnc2nc(N)nc(N)c2n1)c1ccc(C(=O)N[C@@H](CCC(=O)O)C(=O)O)cc1", "IC50 [µM]": "> 10"}
{"data": "Set 2", "organism": "Cryptosporidium parvum", "technique": "high-throughput screen", "tested at": "concentration not given"}
{"SMILES": "Cc1[nH]c(=O)c(C#N)cc1-c1ccncc1", "activity": "inactive"}
{"SMILES": "Cl.O=C(O)/C=C/c1ccc(Cn2ccnc2)cc1", "activity": "inactive"}
{"SMILES": "S=c1[nH]cnc2nc[nH]c12", "activity": "inactive"}
{"SMILES": "O=C1[C@H](CC[C@H](O)c2ccc(F)cc2)[C@@H](c2ccc(O)cc2)N1c1ccc(F)cc1", "activity": "inactive"}
{"SMILES": "CO[C@H]1/C=C/O[C@@]2(C)Oc3c(C)c(O)c4c(c3C2=O)C2=NC3(CCN(CC(C)C)CC3)NC2=C(NC(=O)/C(C)=C\\C=C\\[C@H](C)[C@H](O)[C@@H](C)[C@@H](O)[C@@H](C)[C@H](OC(C)=O)[C@@H]1C)C4=O", "activity": "inactive"}
{"SMILES": "Cl.Nc1nc2ccc(OC(F)(F)F)cc2s1", "activity": "inactive"}
{"SMILES": "Cc1nccn1CC1CCc2c(c3ccccc3n2C)C1=O (centres unmarked)", "activity": "inactive"}
{"SMILES": "COc1ccc(/C=C/C(=O)Nc2ccccc2C(=O)O)cc1OC", "activity": "inactive"}
{"SMILES": "O=C(O)C[C@H](O)C[C@H](O)/C=C/c1c(C2CC2)nc2ccccc2c1-c1ccc(F)cc1", "activity": "inactive"}
{"SMILES": "CC(=O)OCC[N+](C)(C)C", "activity": "inactive"}
{"SMILES": "COc1cc(C(=O)NC2CCCNC2)cc(OC)c1OC (centres unmarked)", "activity": "inactive"}
{"SMILES": "CN(C)CC[C@@H](c1ccc(Br)cc1)c1ccccn1", "activity": "inactive"}
{"SMILES": "CN(C)CCN(Cc1ccccc1)c1ccccn1", "activity": "inactive"}
{"SMILES": "CCc1nc(N)nc(N)c1-c1ccc(Cl)cc1", "activity": "inactive"}
{"SMILES": "Cc1ccc(NC(=O)c2ccc(CN3CCN(C)CC3)cc2)cc1Nc1nccc(-c2cccnc2)n1", "activity": "inactive"}
{"SMILES": "COc1cc(C)c(Cc2cnc(N)nc2N)cc1OC", "activity": "inactive"}
{"SMILES": "C[C@]12CCC(=O)C=C1CC[C@@H]1[C@@H]2C(=O)C[C@@]2(C)[C@H]1CC[C@]2(O)C(=O)CO", "activity": "inactive"}
{"SMILES": "CN(C)CCCC1(c2ccc(F)cc2)OCc2cc(C#N)ccc21 (centres unmarked)", "activity": "inactive"}
{"SMILES": "Cc1ncc([N+](=O)[O-])n1CCO", "activity": "inactive"}
{"SMILES": "OC[C@H]1O[C@@H](Oc2cc(O)cc(/C=C/c3ccc(O)cc3)c2)[C@H](O)[C@@H](O)[C@@H]1O", "activity": "inactive"}
{"SMILES": "CO/N=C(\\C(=O)N[C@@H]1C(=O)N2C(C(=O)O)=C(COC(C)=O)CS[C@H]12)c1csc(N)n1", "activity": "inactive"}
{"SMILES": "OCc1cc(C(O)CNCCCCCCOCCCCc2ccccc2)ccc1O (centres unmarked)", "activity": "inactive"}
{"SMILES": "CCCSc1ccc2nc(NC(=O)OC)[nH]c2c1", "activity": "inactive"}
{"SMILES": "CCS(=O)(=O)CCn1c([N+](=O)[O-])cnc1C", "activity": "inactive"}
{"SMILES": "Nc1nc2c(ncn2COCCO)c(=O)[nH]1", "activity": "inactive"}
{"data": "Set 3", "Compound": "CNC(=O)Nc1ccc2c(c1)C1(CC2)OC(=O)N(CC(=O)N(Cc2ccc(F)cc2)[C@@H](C)C(F)(F)F)C1=O (single isomer, unassigned)"}
{"target": "CREBBP", "test": "biochemical activity", "IC50 [µM]": 9.03}
{"target": "EP300", "test": "biochemical activity", "IC50 [µM]": "> 10"}
{"target": "EP300 and CREBBP", "test": "cell-based", "IC50 [µM]": "> 10"}
{"data": "Single results of other studies", "CASP1": "Caspase-1 (CASP1, Homo sapiens, UniProt P29466)", "chain of UniProt P29466 (whole entry, looked up)": "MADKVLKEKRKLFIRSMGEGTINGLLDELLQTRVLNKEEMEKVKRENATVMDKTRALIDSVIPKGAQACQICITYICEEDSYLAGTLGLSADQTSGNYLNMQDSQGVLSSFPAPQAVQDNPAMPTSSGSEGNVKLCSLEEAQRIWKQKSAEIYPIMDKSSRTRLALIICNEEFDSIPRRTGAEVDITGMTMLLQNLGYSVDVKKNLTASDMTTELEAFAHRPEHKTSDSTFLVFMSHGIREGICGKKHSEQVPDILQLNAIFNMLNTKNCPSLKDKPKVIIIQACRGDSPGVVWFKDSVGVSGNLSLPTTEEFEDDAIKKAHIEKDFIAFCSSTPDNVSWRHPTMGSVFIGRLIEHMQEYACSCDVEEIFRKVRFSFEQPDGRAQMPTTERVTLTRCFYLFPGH"}
{"Structure (SMILES)": "CCCCOc1cc(C(=O)NCCN(CC)CC)c2ccccc2n1", "endpoint": "logP", "value": "> 3"}
{"Structure (SMILES)": "O=C(c1cc(Cc2n[nH]c(=O)c3ccccc23)ccc1F)N1CCN(C(=O)C2CC2)CC1", "system": "human", "conditions": "300 mg single dose, tablet", "endpoint": "Cmax", "value": "7410 ng/mL"}
{"Structure (SMILES)": "COc1ccccc1[C@H](Cn1c(=O)n(C(C)(C)C(=O)O)c(=O)c2c(C)c(-c3ncco3)sc21)OC1CCOCC1", "system": "rat", "conditions": "0.18 mg/kg, hepatic fatty acid synthesis model", "endpoint": "AUC at ED50", "value": "19 ng·h/mL"}
{"Structure (SMILES)": "C[C@@H](Oc1cc(-c2cnn(C3CCNCC3)c2)cnc1N)c1c(Cl)ccc(F)c1Cl", "system": "human patients", "conditions": "dose not given", "endpoint": "Cmax steady state", "value": "315 ng/mL"}
{"Structure (SMILES)": "[NH2][Pt]([NH2])([Cl])[Cl]", "endpoint": "logP", "value": -2.3}
{"Structure (SMILES)": "CC(C)C[C@@H]1NC(=O)[C@H](CC(=O)O)NC(=O)CNC(=O)[C@H](CCCNC(=N)N)NC(=O)[C@H](Cc2ccc(O)cc2)NC(=O)[C@H](CCCCNC(=O)CCc2cn(CCCNC(=O)CCP(=O)(O)CN3CCN(CP(=O)(O)CCC(=O)NCCCn4cc(CCC(=O)NCCCC[C@H]5C(=O)N[C@@H](Cc6ccc(O)cc6)C(=O)N[C@@H](CCCNC(=N)N)C(=O)NCC(=O)N[C@@H](CC(=O)O)C(=O)N[C@@H](CC(C)C)C(=O)N[C@@H](C)C(=O)N[C@@H](Cc6ccc(O)cc6)C(=O)N6CCC[C@@H]6C(=O)N5C)nn4)CCN(CP(=O)(O)CCC(=O)NCCCn4cc(CCC(=O)NCCCC[C@H]5C(=O)N[C@@H](Cc6ccc(O)cc6)C(=O)N[C@@H](CCCNC(=N)N)C(=O)NCC(=O)N[C@@H](CC(=O)O)C(=O)N[C@@H](CC(C)C)C(=O)N[C@@H](C)C(=O)N[C@@H](Cc6ccc(O)cc6)C(=O)N6CCC[C@@H]6C(=O)N5C)nn4)CC3)nn2)N(C)C(=O)[C@H]2CCCN2C(=O)[C@H](Cc2ccc(O)cc2)NC(=O)[C@H](C)NC1=O [gallium-68 labelled]", "system": "SCID mice with MDA-MB-231 tumour, kidney", "conditions": "90 min", "endpoint": "tissue uptake", "value": "70.6 ± 20 %ID/g"}
{"Structure (SMILES)": "O=C(CCSSc1ccccc1/C=N/NC(=O)c1ccccc1)OC[C@H]1OC(O)[C@H](O)[C@@H](O)[C@@H]1O (some centres unmarked)", "tested on": "A2780 ovarian carcinoma", "test": "MTT", "conditions": "72 h", "endpoint": "IC50", "value": "5.2 ± 0.8 µM"}
{"Structure (SMILES)": "CN(C)CC/C=C1/c2ccccc2Sc2ccc(Cl)cc21", "tested on": "MCF7", "test": "microarray, Connectivity Map, measured: BHLHE40 mRNA", "conditions": "concentration not given, 6 h", "scale": "reference: DMSO", "endpoint": "fold change", "value": 4.22}
{"Structure (SMILES)": "Cc1c(C)c2c(c(C)c1O)CC[C@](C)(CN1CCN(c3cc(N4CCCC4)nc(N4CCCC4)n3)CC1)O2", "tested on": "CASP1", "test": "inhibitor", "endpoint": "Ki", "value": "~0.05 µM"}
{"Structure (SMILES)": "CCN(CC)c1ccc2c(-c3ccccc3C(=O)O)c3ccc(=[N+](CC)CC)cc-3oc2c1", "conditions": "cation to zwitterion", "endpoint": "pKa", "value": 3.7}
{"Structure (SMILES)": "CCN1CCN(Cc2ccc(Nc3ncc(F)c(-c4cc(F)c5nc(C)n(C(C)C)c5c4)n3)nc2)CC1", "system": "human", "conditions": "100 mg twice daily, tablet, multiple dose", "endpoint": "AUC(0-last)", "value": "2190 ng·h/mL"}
{"Structure (SMILES)": "CNC(=O)c1ccc(N2C(=S)N(c3ccc(C#N)c(C(F)(F)F)c3)C(=O)C2(C)C)cc1F", "test": "measured: diarrhea", "system": "post-docetaxel patients", "conditions": "dose not given, AFFIRM trial", "endpoint": "adverse event incidence", "value": "21%"}
{"Structure (SMILES)": "Cc1cc(C)c(CNC(=O)c2cc(Cl)c3c(c2C)O[C@@](C)([C@H]2CC[C@H](N(C)C)CC2)O3)c(=O)[nH]1", "system": "healthy human, fasted", "conditions": "oral, 200 mg single dose", "endpoint": "Cmax", "value": "1500 ng/mL"}
{"Structure (SMILES)": "O=C(O)C1=CC(=C(c2ccc(O)c(C(=O)O)c2)c2ccc(O)c(C(=O)O)c2)C=CC1=O", "tested on": "DNA dC->dU-editing enzyme APOBEC-3A (Homo sapiens, UniProt P31941)", "endpoint": "IC50", "value": "0.03 µM"}
{"Structure (SMILES)": "OB1OCc2cc(F)ccc21", "tested on": "leucyl-tRNA synthetase, Saccharomyces cerevisiae", "endpoint": "residence time", "value": "~6 h"}
{"Structure (SMILES)": "CCCCCCCCNC(C)C(O)c1ccc(SC(C)C)cc1 (centres unmarked)", "tested on": "MCF7", "test": "microarray, measured: SLCO4C1 mRNA", "conditions": "concentration not given", "scale": "reference: DMSO", "endpoint": "log2 fold change", "value": 1.87}
{"Structure (SMILES)": "C[C@]1(c2nc3c(C(N)=O)cccc3[nH]2)CCCN1", "tested on": "SIRT2", "conditions": "concentration not given, vendor information", "endpoint": "activity", "value": "inactive"}
{"Structure (SMILES)": "CCCCCCCCCCCCCCCC(=O)N[C@@H](CCC(=O)NCCCC[C@@H]1NC(=O)[C@H]([C@@H](C)CC)NC(=O)[C@@H](NC(=O)[C@@H]2CCCN2C(=O)[C@H](Cc2ccccc2)NC(=O)[C@H](Cc2c[nH]cn2)NC(=O)[C@@H](NC(=O)[C@H](CC(=O)O)NC(=O)CC(C)C)[C@@H](C)O)CSSC[C@@H](C(=O)N[C@@H](CCCCN)C(N)=O)NC(=O)CNC(=O)[C@H](CCCCN)NC(=O)[C@H](CO)NC(=O)[C@H](CCCNC(=N)N)NC(=O)[C@@H]2CCCN2C(=O)[C@H](CCC(=O)O)NC(=O)[C@H](Cc2ccccc2)NC1=O)C(=O)O", "system": "cynomolgus monkey, plasma", "conditions": "subcutaneous, 0.3 mg/kg", "endpoint": "Tmax", "value": "8 h"}
{"Structure (SMILES)": "C[C@]12C=CC(=O)C=C1CC[C@@H]1C2=CC[C@]2(C)[C@@H](C(=O)CN3CCN(c4cc(N5CCCC5)nc(N5CCCC5)n4)CC3)CC[C@@H]12", "tested on": "CASP1", "test": "inhibitor", "endpoint": "Ki", "value": "~0.05 µM"}
